# Measurements collected from several papers.
# Parts stem from different laboratories: compare values within a part only. Substitutions count along the parent as printed.

# Study 1
# Target: Interferon regulatory factor 5, full length, phosphomimetic (IRF5, Homo sapiens, UniProt Q13568-2, residues 1-514, S451D/S453D/S456D/S462D)
# Method: protein-binding microarray
# Form: double-stranded DNA, one strand shown
# Medium: in vitro
# Tested at: 940 nM top
# Setting: 60-bp whole probe
# Added: salmon DNA 0.4 mg/ml
# Relative to: random background probes
# Reading: higher = stronger binding
# Shared flanks, not repeated: GCCTAGCAC … GTCTTGATTCGCTTGACGCTGCTG
Sequence,fitted relative affinity [z-score]
TCAGTTTTCATTTTATGACTGTGCTAG,1.47
TCAGAACTGAGTCTCGATTAGTGCTAG,2.72
TCATTTCTAATATTCTGACTGTGCTAG,0.507
TCACTAATCTCACTCTGACTGTGCTAG,1.45
TCACCAATCTCTCTTCAACTGTGCTAG,0.961
TCATTTTTGGTTTCTGGACTGTGCTAG,3.34
GACGGTCTCCTTATCCTGACGTGCTAG,0.754
TTAGGTATCTGACTGGGTTAGTGCTAG,0.578
TCACGTTACTTCCTCAAACTGTGCTAG,1.08
GACGATTTCAGACTGGAGAAGTGCTAG,-0.207
TCATCTCTACATGTGTTACTGTGCTAG,0.517
TCAGCCATCAATATCTGACTGTGCTAG,-0.219
TTATGTATCGGTCTCGGTTAGTGCTAG,6.13
TTAGGTCTCCTTATCGTTTAGTGCTAG,0.572
TTACGTTCCGGTTTCGGTTAGTGCTAG,10.2
TTAGGACTGCTACTGCTTTAGTGCTAG,-0.372
GACGGTTTCGACTATCAGGACGTGCTA,8.17
GTCCCTGAATGAAAACATCATGTGCTA,0.44
GGGTCTCTGGGTCGGGCAGGGTGCTAG,0.281
GACGGTTCCCTTTTCCTGCCGTGCTAG,0.701
GGAAGTCCCATGTTGCAGACTGTGCTA,0.0727

# Study 2
# Target: RNA binding protein fox-1 homolog 2, RRM domain, GST-SBP tag (RBFOX2, Homo sapiens, UniProt O43251-10, residues 100-194)
# Method: RNA Bind-n-Seq
# Form: RNA
# Medium: in vitro
# Tested at: 365 nM
# Setting: natural RNA segment, single round, ends assumed
# Relative to: no-protein control
# Reading: higher = stronger binding
# Shared flanks, not repeated: GGGAGUUCUACAGUCCGACGAUC … UGGAAUUCUCGGGUGCCAA
# Residues (chain): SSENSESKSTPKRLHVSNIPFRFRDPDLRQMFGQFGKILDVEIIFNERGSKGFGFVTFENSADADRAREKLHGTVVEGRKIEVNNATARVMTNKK
Sequence,RBNS enrichment (R)
AUGUCUUAAUUCUUUGCCUGUGGGUAAGUGAGAGAAUGGCUGCCAGUAGUUGUUGGAGACCUGGUAGUGGGAAGGAUGUUAUGGGUCACUGGAAAGUGGCCAGUCUUCAC,2.8
CCUCUCCCAGCGUUUCUCCGGUUUGCCAAUCCUCUUAAGUAUUCCUGUCUCCAAAGGACCGGCUCUCCAUGGCUCCUGCGCCUCGUGCUUUCCGCGUACAGAAGUGCUUG,0.328
GUUCAAUUUCAGCAUAUUUUAGGGUGAGUAAUCAAAAAUGUGAAUUUGCCUUUGAUUUCCUACCACUGUCUGAGCUAUCAUAAAGCAUUCUCUUUAGUUGUGAUUUGAUU,1.05
ACCUUCCGUUUCCAGCUUCUCCCACUUCAGCCUGUUCCCACGGCACCGGGGUUUCUACUCCUGUACCCUCUGCAGGUGGAGAGAGAGAAGCUGGGCCCAGUUUGGCCAUG,0.24
CAUAUCCUUGCCCUUGAGUGCUUGUUAGAGAGAAAGAGAACUACUAAGGAAAAUAAUAUUAUUUAAACUCGCUCCUAGUGUUUCUUUGUGGUCUGUGUCACCGUAUCUCA,2.16
CUUAGCUAAGGAGCUGAGAAACAGCCACAGUACUCCCUUCUCUUCGCGCACAGGGCCCUCUCUCUUAGAGACUGCUCAGCUUUCGAGUCCAGGGAGGAGUCAGCGGGGAG,0.282
GUGCACUUGUGUGUGGGUGACUAAGUGGAUGCAUGUGUGUGCCUGUGUGAGUGAGGGUAUGUGCACCUAAGUGUGUACAUGUGUGUAUGUUGUGAAAGUGUCUGUGCACA,15.2
CUUUCUUGGUUUGGUCACCCCGAUCCCCCGGUCUUCUGCUGUAUCUAGAACAGUGACUAUAAAUGAUGUAUGGGAAUAGUGUUUCCAUAUGAUCUGUUGUCUGGAGUAUA,0.607
GUCCCUUGUUCUUCGUUCUGCUGCUUUGCCCCUUCCUUCCCUCUUCAUGGAGUGAUUAUGUUGAUAAUAAUGUGUAAUGCGCGUUCUUUUCACUGGUUUAUCUACAGAAA,0.325
ACGGUUCGGGCUGGCGUGCAGCUCUCCCAGCCAGCCACGCUCUGCUCAGGCCUGGAAGUGAAAGCCGCCUCCUUCCCGUUAUGCCCCCCAUACAGGAGCCUCGGUUUUUC,0.429
AUAAGGAUUAUACAGUAUUAAUUAAUUAUAAGGCCCAAAGUUUGUUUUGGCAAAUAAAGUAUUAUUCUCUAUCAUCAUCUUUUGAAUUCCUGUCCCUAGUAUGUUCUUUC,0.5
GGAGCAGAGCACACUCCCGGGAUUCAGGGACAUGGUCCUCACAGCUCGGAAGUAGCUCUAGUCCUGCGAGCAGGCACUUGGAACAGCAGUCUGUAAGCAGGAGUCAUUGC,0.296

# Study 3
# Target: Sal-like protein 4, full length isoform B (SALL4, Homo sapiens, UniProt Q9UJQ4-2, residues 1-616)
# Method: universal PBM
# Form: double-stranded DNA, one strand shown
# Medium: in vitro
# Tested at: not given
# Setting: 8-mer, flanks averaged, mean of replicates
# Reading: higher = stronger binding
# Target sequence (chain): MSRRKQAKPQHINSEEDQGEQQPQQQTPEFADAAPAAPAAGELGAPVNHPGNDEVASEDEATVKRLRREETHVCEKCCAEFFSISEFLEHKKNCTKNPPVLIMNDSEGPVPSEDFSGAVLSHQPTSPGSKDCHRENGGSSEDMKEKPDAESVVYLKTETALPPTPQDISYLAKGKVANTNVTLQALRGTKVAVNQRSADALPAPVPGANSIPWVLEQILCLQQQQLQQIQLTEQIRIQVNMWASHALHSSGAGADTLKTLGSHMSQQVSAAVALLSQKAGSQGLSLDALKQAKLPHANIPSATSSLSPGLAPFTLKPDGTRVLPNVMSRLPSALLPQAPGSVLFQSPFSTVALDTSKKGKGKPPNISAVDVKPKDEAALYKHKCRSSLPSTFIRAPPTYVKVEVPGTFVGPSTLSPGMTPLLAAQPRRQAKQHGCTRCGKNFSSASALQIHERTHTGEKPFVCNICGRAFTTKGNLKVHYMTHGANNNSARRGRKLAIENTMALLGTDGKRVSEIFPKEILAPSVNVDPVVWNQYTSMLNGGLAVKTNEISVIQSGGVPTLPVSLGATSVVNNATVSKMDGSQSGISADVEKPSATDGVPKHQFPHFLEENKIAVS
Sequence,E-score
CATTTTGA,0.199
CAAATTAC,0.143
GCTGCGCA,-0.283
CGCGAAAC,-0.216
TCCATGAA,0.246
GATTCGGC,-0.211
GGAAAGAC,-0.126
CAGACCTC,-0.171
ACTAAATA,0.335
ACGGCGCG,-0.115
GATCAGGA,-0.192
TTACCAAA,0.274
GATAACTA,0.276
ATTTTACA,0.334
GCCAATCC,-0.133
CCAACGGG,-0.338
AAGTTGGG,-0.152
CTTTGTGC,0.022
ACGGTGTG,-0.151
ACTCCTGA,-0.0347
CGGTGGAC,-0.243
ATTGATGG,0.269
GAATCGCC,-0.228
GGCTTGTA,-0.0327
CGAGTCGA,-0.121

# Study 4
# Target: Histone acetyltransferase KAT6A, winged helix 1, GST fusion (KAT6A, Homo sapiens, UniProt Q92794, residues 1-85)
# Method: protein binding microarray
# Form: double-stranded DNA, one strand shown
# Medium: in vitro
# Tested at: not given
# Setting: 8-mer, flanks averaged, mean of 2 arrays, mostly near background
# Relative to: not given
# Reading: higher = stronger binding
# Target sequence (chain): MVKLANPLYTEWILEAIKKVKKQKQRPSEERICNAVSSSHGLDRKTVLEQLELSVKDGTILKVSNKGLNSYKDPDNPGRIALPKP
Sequence,E-score
ACTTCCTA,-0.147
AGGAGATG,-0.145
ATTGTCAC,-0.104
GCCCACGA,-0.144
CCGTAGTC,0.321
CTTACAGA,-0.0919
ACTCCCTG,-0.296
CTGGCCCC,-0.117
AGCTAACA,-0.161
GAAACTAC,-0.0424
AGATTTAG,-0.245
ACTAACAC,-0.0278
AAAAGCTG,0.0142
ACACGGCA,0.324
AAGATCAA,-0.106
ATGTCGAG,-0.123
GTAGACAA,-0.0452

# Study 5
# Target: DDIT3, bZIP domain (human)
# Method: DHFR protein complementation
# Medium: yeast
# Setting: single substitutions, most at no-binding floor
# Relative to: wild-type JUN-FOS pair
# Reading: higher = stronger binding
# Starting sequence: JUN, bZIP domain (human); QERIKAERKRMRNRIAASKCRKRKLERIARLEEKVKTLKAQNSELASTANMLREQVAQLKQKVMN; partner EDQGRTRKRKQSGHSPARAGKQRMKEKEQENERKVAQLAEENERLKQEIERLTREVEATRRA
Variant,binding fitness
E54W,-0.457 natural log
L38N,-1.47 natural log
A49C,-0.0744 natural log
T48Q,0.109 natural log
A46K,0.129 natural log
A46S,0.016 natural log
A49H,-0.597 natural log
L45I,-1.46 natural log
E33G,-0.283 natural log
T37Y,0.135 natural log
S47P,-1.12 natural log
A40V,-0.0261 natural log
A40E,0.0788 natural log
R30M,0.114 natural log
L31P,-1.2 natural log
Q41W,-1.14 natural log
S47A,0.158 natural log
R30K,-0.00174 natural log
A46E,0.0645 natural log
M51Q,0.0606 natural log
K34E,0.00684 natural log
N42T,-1.27 natural log
L52H,-1.1 natural log
T48G,-1.12 natural log
K34L,0.0866 natural log

# Study 6
# Target: CCND1, cyclin fold, Cln2 fusion (human)
# Method: yeast growth competition, sequencing
# Medium: yeast
# Setting: weak parent motif
# Relative to: not given
# Reading: higher = stronger binding
# Starting sequence: PKMYT1 docking peptide (human); SFEPRNLLSLFED; partner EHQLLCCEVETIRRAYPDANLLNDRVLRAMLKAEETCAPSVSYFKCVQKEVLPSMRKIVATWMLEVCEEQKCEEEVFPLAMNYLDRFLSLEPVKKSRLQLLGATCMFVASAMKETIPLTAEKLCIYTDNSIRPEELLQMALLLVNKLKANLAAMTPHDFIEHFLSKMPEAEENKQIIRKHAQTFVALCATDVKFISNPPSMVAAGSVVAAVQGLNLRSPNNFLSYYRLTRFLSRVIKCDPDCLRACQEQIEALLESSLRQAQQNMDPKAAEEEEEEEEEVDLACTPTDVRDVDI
Variant,normalised enrichment score
L7F,1.13
S1I,0.293
S1N,0.438
S1H,0.102
F2H,0.437
R5A L7A,0.852
F11D,0.826
S1L,0.317
R5L,1.76
R5P,0.94
E12L,0.666
E12I,1.39
P4H,1.47
P4A,1.48
R5K F11L,0.327
R5M,1.36
N6F,1.91
F2L,0.962
L10Y,1.05
P4C,1.05
E3S,0.726
E3H,0.901
L8A,0.977
S9N,1.24

# For quick reference, copied from above (study 6):
Variant,normalised enrichment score
R5L,1.76
P4H,1.47
E12I,1.39
E3H,0.901
R5K F11L,0.327
S1N,0.438
